Experimental data collected from several papers.
Numbered parts are unrelated; each lists some results of a single study. Values joined by “and” are separate records of one study, mostly repeats; a detail may differ. Positions count from the first letter of the parent shown.
Sequence of UniProt P27448 (whole entry, looked up): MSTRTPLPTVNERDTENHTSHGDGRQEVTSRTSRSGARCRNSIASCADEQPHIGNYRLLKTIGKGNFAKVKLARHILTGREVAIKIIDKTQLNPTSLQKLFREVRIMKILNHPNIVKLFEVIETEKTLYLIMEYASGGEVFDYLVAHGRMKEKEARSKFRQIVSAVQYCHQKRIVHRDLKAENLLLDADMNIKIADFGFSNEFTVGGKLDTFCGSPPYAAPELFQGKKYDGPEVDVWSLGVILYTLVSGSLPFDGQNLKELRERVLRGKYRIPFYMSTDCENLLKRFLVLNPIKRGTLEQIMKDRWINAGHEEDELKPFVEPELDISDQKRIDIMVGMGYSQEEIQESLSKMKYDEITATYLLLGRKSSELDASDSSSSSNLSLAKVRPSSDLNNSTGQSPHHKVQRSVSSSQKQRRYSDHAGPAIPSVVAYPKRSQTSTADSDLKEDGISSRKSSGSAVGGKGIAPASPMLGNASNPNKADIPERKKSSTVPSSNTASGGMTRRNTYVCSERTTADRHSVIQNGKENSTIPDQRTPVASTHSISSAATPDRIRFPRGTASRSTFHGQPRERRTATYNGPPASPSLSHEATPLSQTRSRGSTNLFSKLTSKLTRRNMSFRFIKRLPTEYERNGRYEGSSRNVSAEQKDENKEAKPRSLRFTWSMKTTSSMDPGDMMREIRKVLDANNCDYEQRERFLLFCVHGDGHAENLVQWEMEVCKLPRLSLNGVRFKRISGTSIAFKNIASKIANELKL
Sequence of UniProt P06241 (whole entry, looked up): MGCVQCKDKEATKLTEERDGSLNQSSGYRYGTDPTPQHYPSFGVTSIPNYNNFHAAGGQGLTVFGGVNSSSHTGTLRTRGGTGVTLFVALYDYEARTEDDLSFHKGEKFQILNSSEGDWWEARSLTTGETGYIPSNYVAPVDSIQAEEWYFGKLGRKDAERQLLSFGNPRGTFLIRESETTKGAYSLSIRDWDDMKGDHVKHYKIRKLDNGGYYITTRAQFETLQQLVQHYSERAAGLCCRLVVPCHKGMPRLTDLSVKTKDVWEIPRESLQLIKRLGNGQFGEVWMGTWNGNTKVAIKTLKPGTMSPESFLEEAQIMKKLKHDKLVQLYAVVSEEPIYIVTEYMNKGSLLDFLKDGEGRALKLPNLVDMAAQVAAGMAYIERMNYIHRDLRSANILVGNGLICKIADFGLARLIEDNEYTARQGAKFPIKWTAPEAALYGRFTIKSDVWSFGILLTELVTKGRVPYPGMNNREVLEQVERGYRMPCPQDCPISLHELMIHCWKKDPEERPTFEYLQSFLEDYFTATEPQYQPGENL
Sequence of UniProt P31749 (whole entry, looked up): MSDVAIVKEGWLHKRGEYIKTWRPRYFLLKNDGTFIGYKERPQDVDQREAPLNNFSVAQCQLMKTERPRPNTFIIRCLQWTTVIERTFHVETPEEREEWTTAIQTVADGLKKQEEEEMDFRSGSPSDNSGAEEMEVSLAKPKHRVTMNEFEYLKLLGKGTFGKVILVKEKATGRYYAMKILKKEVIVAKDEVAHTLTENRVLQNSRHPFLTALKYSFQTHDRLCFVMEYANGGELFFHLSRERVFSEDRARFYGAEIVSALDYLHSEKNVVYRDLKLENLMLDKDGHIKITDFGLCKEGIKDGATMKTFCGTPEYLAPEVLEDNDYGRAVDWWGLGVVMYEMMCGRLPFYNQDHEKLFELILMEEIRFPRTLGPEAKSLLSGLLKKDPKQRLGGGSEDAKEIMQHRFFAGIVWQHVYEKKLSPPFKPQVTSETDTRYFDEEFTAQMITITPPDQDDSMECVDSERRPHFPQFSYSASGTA
Sequence of UniProt P29376 (whole entry, looked up): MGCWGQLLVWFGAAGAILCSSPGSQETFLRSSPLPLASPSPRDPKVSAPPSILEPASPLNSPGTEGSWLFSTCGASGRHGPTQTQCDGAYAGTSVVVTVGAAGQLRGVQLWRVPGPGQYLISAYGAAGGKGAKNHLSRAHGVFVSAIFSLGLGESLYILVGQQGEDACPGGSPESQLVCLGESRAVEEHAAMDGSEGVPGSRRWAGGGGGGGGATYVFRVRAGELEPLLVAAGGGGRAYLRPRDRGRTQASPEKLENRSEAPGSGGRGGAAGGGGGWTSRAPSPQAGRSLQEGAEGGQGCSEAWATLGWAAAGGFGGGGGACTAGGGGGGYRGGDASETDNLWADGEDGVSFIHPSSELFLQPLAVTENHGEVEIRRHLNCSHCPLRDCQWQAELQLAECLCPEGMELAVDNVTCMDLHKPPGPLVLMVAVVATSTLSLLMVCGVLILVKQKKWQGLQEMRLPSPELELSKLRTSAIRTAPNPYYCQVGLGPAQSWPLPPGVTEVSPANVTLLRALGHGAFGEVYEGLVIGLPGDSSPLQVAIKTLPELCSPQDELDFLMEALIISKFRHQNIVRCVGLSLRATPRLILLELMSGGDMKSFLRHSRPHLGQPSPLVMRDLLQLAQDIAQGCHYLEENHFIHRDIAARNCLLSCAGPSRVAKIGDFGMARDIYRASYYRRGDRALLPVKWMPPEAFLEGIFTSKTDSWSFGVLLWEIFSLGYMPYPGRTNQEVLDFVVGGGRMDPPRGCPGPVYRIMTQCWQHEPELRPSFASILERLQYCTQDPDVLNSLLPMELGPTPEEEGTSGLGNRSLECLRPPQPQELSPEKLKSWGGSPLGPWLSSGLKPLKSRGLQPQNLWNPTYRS
Sequence of UniProt P16591 (whole entry, looked up): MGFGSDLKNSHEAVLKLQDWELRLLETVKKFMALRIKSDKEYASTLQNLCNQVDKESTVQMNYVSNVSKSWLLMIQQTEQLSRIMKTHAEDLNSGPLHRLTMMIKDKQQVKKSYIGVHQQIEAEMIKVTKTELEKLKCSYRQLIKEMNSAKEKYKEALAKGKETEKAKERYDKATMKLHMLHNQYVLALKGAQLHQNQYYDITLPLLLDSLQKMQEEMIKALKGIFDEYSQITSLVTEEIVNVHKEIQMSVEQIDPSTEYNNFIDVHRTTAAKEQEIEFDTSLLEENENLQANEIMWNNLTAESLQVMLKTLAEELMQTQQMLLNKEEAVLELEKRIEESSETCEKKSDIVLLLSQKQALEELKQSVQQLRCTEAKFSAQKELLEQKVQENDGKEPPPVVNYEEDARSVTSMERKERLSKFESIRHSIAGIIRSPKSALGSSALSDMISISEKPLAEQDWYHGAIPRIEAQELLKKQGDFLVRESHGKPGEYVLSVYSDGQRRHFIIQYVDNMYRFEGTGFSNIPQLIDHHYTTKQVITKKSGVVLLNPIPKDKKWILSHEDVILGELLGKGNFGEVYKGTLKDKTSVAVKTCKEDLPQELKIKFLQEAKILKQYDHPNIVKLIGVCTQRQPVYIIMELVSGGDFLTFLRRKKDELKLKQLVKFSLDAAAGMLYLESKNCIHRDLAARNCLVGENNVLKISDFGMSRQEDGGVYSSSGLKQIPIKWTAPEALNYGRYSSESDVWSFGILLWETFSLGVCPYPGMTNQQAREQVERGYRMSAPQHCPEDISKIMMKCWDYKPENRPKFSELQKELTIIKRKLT
Sequence of UniProt Q96RG2 (whole entry, looked up): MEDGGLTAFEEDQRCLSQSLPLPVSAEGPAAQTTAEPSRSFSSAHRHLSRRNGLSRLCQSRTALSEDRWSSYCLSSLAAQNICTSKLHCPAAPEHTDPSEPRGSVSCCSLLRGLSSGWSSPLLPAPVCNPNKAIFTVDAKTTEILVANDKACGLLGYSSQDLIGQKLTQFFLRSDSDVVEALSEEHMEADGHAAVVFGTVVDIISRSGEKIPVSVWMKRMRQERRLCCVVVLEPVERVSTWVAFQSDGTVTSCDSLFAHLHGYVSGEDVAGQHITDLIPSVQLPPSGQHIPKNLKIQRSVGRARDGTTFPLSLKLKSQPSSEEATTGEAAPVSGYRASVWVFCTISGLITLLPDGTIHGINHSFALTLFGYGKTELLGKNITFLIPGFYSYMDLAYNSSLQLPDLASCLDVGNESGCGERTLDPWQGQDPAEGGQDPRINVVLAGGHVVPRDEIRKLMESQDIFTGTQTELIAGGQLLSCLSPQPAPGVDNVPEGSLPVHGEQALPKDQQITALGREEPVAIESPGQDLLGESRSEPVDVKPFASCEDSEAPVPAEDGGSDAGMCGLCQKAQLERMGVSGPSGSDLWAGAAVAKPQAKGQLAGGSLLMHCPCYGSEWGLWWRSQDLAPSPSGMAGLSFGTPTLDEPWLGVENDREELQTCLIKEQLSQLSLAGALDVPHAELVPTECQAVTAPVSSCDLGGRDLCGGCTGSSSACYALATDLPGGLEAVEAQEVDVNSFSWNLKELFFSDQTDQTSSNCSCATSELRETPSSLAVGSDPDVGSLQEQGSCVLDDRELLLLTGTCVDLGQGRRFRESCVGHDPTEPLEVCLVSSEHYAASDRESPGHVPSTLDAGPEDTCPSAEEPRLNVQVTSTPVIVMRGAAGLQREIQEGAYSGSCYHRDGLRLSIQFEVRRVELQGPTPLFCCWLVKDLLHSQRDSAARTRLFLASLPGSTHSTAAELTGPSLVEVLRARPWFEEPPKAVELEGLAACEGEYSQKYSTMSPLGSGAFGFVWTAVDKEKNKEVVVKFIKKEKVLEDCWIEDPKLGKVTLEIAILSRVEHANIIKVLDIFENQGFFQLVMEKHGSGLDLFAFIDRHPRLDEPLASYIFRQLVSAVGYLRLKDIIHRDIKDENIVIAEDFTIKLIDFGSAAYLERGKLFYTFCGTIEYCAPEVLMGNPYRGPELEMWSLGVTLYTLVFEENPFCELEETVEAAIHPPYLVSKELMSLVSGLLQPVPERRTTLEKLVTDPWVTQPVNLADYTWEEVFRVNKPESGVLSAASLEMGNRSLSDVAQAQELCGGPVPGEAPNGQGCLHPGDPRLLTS

Study 1
SMILES: CC(=O)N[C@@H](Cc1c[nH]c2ccccc12)C(=O)N[C@@H](CCC(=O)C=[N+]=[N-])C(=O)OC(C)C
test system	conditions	scale	body weight
C57BL/6 CES1-/- mouse, EL4 tumour	intravenous, 1 mg/kg DON equivalent, treatment day 17, 5 days per week	relative to: baseline	90% and 96% and 100% and 92% and 110% and 89%
C57BL/6 CES1-/- mouse, both sexes	0.3 mg/kg, day 15	–	104% and 100% and 95.7%
C57BL/6 CES1-/- mouse, both sexes	0.1 mg/kg, day 14	–	110% and 100% and 109% and 114%

Study 2
SMILES: O=C(c1cc(Cc2n[nH]c(=O)c3ccccc23)ccc1F)N1CCN(C(=O)C2CC2)CC1
cell line	conditions	clonogenic survival
CAPAN-1 (BRCA2-mutant)	0.25 µM	23% and 28.7%
CAPAN-1 BRCA2-corrected	1 µM	87.1% and 52%
CAPAN-1 BRCA2-corrected	0.5 µM	114% and 91.7%

Study 3 — effect on: enzyme activity; action: inhibitor; tested at: 0.5 µM; relative to: control
SMILES: COc1ccc2c(c[n+](C)c3c4cc5c(cc4ccc23)OCO5)c1OC
target	remaining activity [%]
Serine/threonine-protein kinase TAO3 (TAOK3, Homo sapiens, UniProt Q9H2K8)	96.1
Vascular endothelial growth factor receptor 3 (FLT4, Homo sapiens, UniProt P35916)	97.6
Serine/threonine-protein kinase Nek11 (NEK11, Homo sapiens, UniProt Q8NG66)	106
Serine/threonine-protein kinase NLK (NLK, Homo sapiens, UniProt Q9UBE8)	102
Proto-oncogene tyrosine-protein kinase Src (SRC, Homo sapiens, UniProt P12931)	91.5
Tyrosine-protein kinase Fgr (FGR, Homo sapiens, UniProt P09769)	91.3
Megakaryocyte-associated tyrosine-protein kinase (MATK, Homo sapiens, UniProt P42679)	89.5
Cyclin-dependent kinase 3, with cyclin E (CDK3, Homo sapiens, UniProt Q00526)	91.7
cAMP-dependent protein kinase catalytic subunit PRKX (PRKX, Homo sapiens, UniProt P51817)	95.1
LIM domain kinase 1 (LIMK1, Homo sapiens, UniProt P53667)	109
PAS domain-containing serine/threonine-protein kinase (PASK, Homo sapiens, UniProt Q96RG2)	91.1
Serine/threonine-protein kinase 25 (STK25, Homo sapiens, UniProt O00506)	98.8
Serine/threonine-protein kinase N1 (PKN1, Homo sapiens, UniProt Q16512)	101
RAC-alpha serine/threonine-protein kinase (AKT1, Homo sapiens, UniProt P31749)	97.6
ALK tyrosine kinase receptor (ALK, Homo sapiens, UniProt Q9UM73)	105
Tyrosine-protein kinase ITK/TSK (ITK, Homo sapiens, UniProt Q08881)	99.2
Insulin receptor (INSR, Homo sapiens, UniProt P06213)	94.9
Tyrosine-protein kinase Fyn (FYN, Homo sapiens, UniProt P06241)	101
Tyrosine-protein kinase Fer (FER, Homo sapiens, UniProt P16591)	89.8
Homeodomain-interacting protein kinase 1 (HIPK1, Homo sapiens, UniProt Q86Z02)	100
Serine/threonine-protein kinase MRCK alpha (CDC42BPA, Homo sapiens, UniProt Q5VT25)	84.8
MAP/microtubule affinity-regulating kinase 3 (MARK3, Homo sapiens, UniProt P27448)	98.7

Study 4 — cell line: mouse MPNST tumor cells; technique: high-content nuclear imaging; item: cell number; tested at: 10 µM; time: 12 h; setting: mean of 2 replicates; relative to: plate mean; reading: higher = more cells
SMILES	nuclei count
CC(C)(O)C(=O)Nc1ccc([N+](=O)[O-])c(C(F)(F)F)c1	1.49 z-score
CN1C[C@H](C(=O)N[C@]2(C)O[C@@]3(O)[C@@H]4CCCN4C(=O)[C@H](Cc4ccccc4)N3C2=O)C[C@@H]2c3cccc4[nH]cc(c34)C[C@H]21	3.98 z-score and 2.1 z-score and 5.19 z-score
CC(=O)Nc1cc([As](=O)(O)O)ccc1O	-0.379 z-score

Study 5 — target: CCNB1, cyclin fold, Cln2 fusion (human); technique: yeast growth competition, sequencing; matrix: yeast; setting: strong parent motif; relative to: not given; reading: higher = stronger binding; parent: viral docking peptide; TSVRRALFTGGSD
Change	normalised enrichment score
V3H	0.0896
F8I	-0.024
A6E	1.84
G11V	2.29
G10D	3.8
L7D	0.156
V3C	1.13
G10E	4.16

Further values, each from its own experiment
SMILES	tested on	test	test system	conditions	scale	endpoint	result
O=C1c2ccc(Nc3ccc(F)cc3F)cc2CCc2ccc(OC[C@H](O)CO)cc21	5-hydroxytryptamine receptor 1A (HTR1A, Homo sapiens, UniProt P08908)	cell-free assay	–	10 µM	–	inhibition	40.5%
Oc1ccc(C2NCc3ccccc3-n3cccc32)cc1Cl (stereo not shown)	–	–	mouse, microsomes or S9	2 µM, 0.5 h	–	remaining compound	20.6%
CN[C@@H]1C[C@H]2O[C@@](C)([C@@H]1OC)n1c3ccccc3c3c4c(c5c6ccccc6n2c5c31)C(=O)NC4	normal-adjacent epithelial organoid	cell viability, CellTiter-Glo	human, patient-derived organoid	1 µM	relative to: DMSO	viability	5.5%
C=CC(=O)N1CCC[C@@H](n2nc(-c3ccc(Oc4ccccc4)cc3)c3c(N)ncnc32)C1	Leukocyte tyrosine kinase receptor (LTK, Homo sapiens, UniProt P29376)	enzyme activity, inhibitor	–	1 µM	–	inhibition	25%
Cc1c(NC(=O)c2cc(C(N)=O)nc3cc(F)ccc23)c(C(F)(F)F)nn1Cc1ccc(C(C)(C)C)cc1	5-hydroxytryptamine receptor 2A (HTR2A, Homo sapiens, UniProt P28223)	binding, radioligand binding	–	10 µM	–	inhibition	-0.878%
CNC(=O)c1ccc(-c2cnn3ccc(C(=O)N(C)c4ccc(Cl)c(C(=O)OC)c4)cc23)cc1	Cryptosporidium parvum	–	neonatal calf	day 0	direction not given	faecal consistency score	3
O=C(Nc1cccnn1)N1CCC(=Cc2cccc(Oc3ccc(C(F)(F)F)cn3)c2)CC1	Calcium-dependent protein kinase 1 (CDPK1, Plasmodium falciparum, UniProt P62344)	cell-free assay, competition with immobilised ligand	–	1 µM	–	remaining binding	93%

Excerpt of the above (study 3):
target	remaining activity [%]
Megakaryocyte-associated tyrosine-protein kinase (MATK, Homo sapiens, UniProt P42679)	89.5
Cyclin-dependent kinase 3, with cyclin E (CDK3, Homo sapiens, UniProt Q00526)	91.7
cAMP-dependent protein kinase catalytic subunit PRKX (PRKX, Homo sapiens, UniProt P51817)	95.1
LIM domain kinase 1 (LIMK1, Homo sapiens, UniProt P53667)	109
PAS domain-containing serine/threonine-protein kinase (PASK, Homo sapiens, UniProt Q96RG2)	91.1
Serine/threonine-protein kinase 25 (STK25, Homo sapiens, UniProt O00506)	98.8
Serine/threonine-protein kinase N1 (PKN1, Homo sapiens, UniProt Q16512)	101
